Assay results of several laboratories.
Compare with care: the assays were run in different laboratories. Numbers after ± are the reported error.
CYP2C19: Cytochrome P450 2C19 (CYP2C19, Homo sapiens, UniProt P33261)
Sequence of UniProt P33261 (whole entry, looked up): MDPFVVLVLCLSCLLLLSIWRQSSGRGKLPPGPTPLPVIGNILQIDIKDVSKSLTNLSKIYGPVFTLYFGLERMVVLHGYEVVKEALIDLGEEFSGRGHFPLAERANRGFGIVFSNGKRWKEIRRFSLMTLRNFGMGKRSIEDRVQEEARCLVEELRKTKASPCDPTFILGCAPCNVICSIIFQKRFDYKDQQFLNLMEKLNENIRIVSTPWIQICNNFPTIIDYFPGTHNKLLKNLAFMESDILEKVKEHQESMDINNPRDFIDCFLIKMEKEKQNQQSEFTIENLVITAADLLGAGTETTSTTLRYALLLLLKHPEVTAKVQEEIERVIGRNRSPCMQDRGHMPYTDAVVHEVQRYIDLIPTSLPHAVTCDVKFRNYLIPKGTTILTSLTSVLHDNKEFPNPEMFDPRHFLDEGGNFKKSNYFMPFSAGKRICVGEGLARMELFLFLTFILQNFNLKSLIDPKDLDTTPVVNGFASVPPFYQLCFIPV
Sequence of UniProt P16662 (whole entry, looked up): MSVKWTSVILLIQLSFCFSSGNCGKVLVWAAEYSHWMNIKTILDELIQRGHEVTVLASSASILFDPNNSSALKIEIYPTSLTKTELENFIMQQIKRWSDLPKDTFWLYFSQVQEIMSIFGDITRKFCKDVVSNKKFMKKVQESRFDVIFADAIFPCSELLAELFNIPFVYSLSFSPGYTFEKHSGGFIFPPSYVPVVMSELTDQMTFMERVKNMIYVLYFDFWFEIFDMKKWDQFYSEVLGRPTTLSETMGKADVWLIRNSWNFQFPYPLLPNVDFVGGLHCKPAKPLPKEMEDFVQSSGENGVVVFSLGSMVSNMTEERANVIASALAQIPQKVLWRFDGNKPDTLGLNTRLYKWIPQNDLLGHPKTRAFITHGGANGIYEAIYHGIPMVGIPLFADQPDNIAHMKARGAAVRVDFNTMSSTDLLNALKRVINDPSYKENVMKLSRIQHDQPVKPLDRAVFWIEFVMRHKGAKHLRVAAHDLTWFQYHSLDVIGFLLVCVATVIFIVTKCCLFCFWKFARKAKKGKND
Sequence of UniProt Q06520 (whole entry, looked up): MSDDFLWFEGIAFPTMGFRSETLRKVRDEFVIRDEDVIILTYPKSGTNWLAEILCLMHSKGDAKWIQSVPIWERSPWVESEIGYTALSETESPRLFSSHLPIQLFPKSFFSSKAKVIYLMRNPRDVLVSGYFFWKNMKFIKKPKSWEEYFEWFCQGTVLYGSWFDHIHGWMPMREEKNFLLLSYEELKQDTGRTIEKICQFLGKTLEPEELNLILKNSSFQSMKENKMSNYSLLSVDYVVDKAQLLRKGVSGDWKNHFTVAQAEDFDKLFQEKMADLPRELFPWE

Nc1nc2c([C@@H]3O[C@@H]4COP(=O)(O)O[C@H]5[C@@H](O)[C@H](c6snc7c(=O)[nH]c(N)nc67)O[C@@H]5COP(=O)(O)O[C@H]4[C@H]3O)snc2c(=O)[nH]1 — molar absorption coefficient (water): 8770 M⁻¹ cm⁻¹
COc1ccc(CNc2nc(N3CCC[C@H]3CO)ncc2C(=O)NNC(=O)c2cnc(N3CCC[C@H]3CO)nc2NCc2ccc(OC)c(Cl)c2)cc1Cl — revertant count (Salmonella typhimurium; TA98; 125 µg/plate, 48 h, with: rat liver S9): 28 ± 8
COc1cc(C(=O)NCCOCCOCCOCCNC(=O)c2ccc([18F])nc2)ccc1NC(=O)C1NC(CC(C)(C)C)C(C#N)(c2ccc(Cl)cc2F)C1c1cccc(Cl)c1F (stereo not drawn) — tracer uptake (HepG2 tumour model; host not given, bone; 2 h, tumour-bearing): 0.72 %ID/g
CN(C)CC1CCCCC1(O)c1cccc(O)c1 (stereo not drawn) — Papp B-to-A (human P-glycoprotein; Caco-2 TC7 monolayer; 100 µM, 3 h, apical pH 7.4, basolateral pH 7.4, with: cyclosporine A 10 µM): 15.2 ± 0.7 ×10⁻⁶ cm/s
O=C(O)CCC(NP(=O)(O)OCCC[C@@H](NC(=O)CCC(NC(=O)c1ccc([18F])cc1)C(=O)O)C(=O)O)C(=O)O (stereo partly drawn) — tracer uptake (CWR22Rv1 tumour model; host not given, tumour; intravenous, 1 h, tumour-bearing): 1.54 %ID/g
CN[C@](C)(C[18F])C(=O)O — tracer uptake (SK-OV-3 tumour model; host not given, bone; 15 min, tumour-bearing): 2.3 %ID/g
CC[C@H](C)C(=O)N1CCC(NC(=O)Nc2ccc(OC(F)(F)F)c(F)c2)CC1 — subjects with moderate TEAE (healthy volunteers; oral, 16 mg single dose, 14 (unit not given)): 0%
CSCC[C@@H]1NC(=O)[C@@H]2CSSC[C@H](NC(=O)[C@H](CO)NC(=O)[C@H](C)N)C(=O)N[C@@H](CCCNC(=N)N)C(=O)N[C@@H]([C@@H](C)O)C(=O)N3CCC[C@H]3C(=O)N[C@@H](CCCCN)C(=O)N[C@@H](CC(=O)O)C(=O)N[C@H]3CSSC[C@H](NC(=O)[C@H](CCCCN)NC(=O)[C@H](CCCNC(=N)N)NC(=O)[C@H](CC(N)=O)NC1=O)C(=O)N[C@@H](CCCCN)C(=O)N[C@H]1CSSC[C@H](NC(=O)[C@@H]4CCCN4C(=O)[C@H](CC(=O)O)NC(=O)[C@H](C)NC3=O)C(=O)N[C@@H](C)C(=O)N[C@@H](CCCCN)C(=O)N[C@@H](CCC(=O)O)C(=O)N[C@@H]([C@@H](C)O)C(=O)NCC(=O)N[C@@H](CSSC[C@@H](C(N)=O)NC(=O)[C@H](CCCNC(=N)N)NC(=O)[C@H](CC(N)=O)NC1=O)C(=O)N1CCC[C@H]1C(=O)N[C@@H](Cc1ccc(O)cc1)C(=O)NCC(=O)N[C@@H](CCCCN)C(=O)N2 — CO2 (DA rat pristane-induced arthritis, serum; subcutaneous, 0.1 mg/kg every other day, 21 days): 19.8 mmol/L
O=C(NC12CC3CC(CC(C3)C1)C2)c1cc2cc(Cl)ccc2[nH]1 — intrinsic clearance (human liver microsomes): 0.9 mL/min/g
CC(C)C[C@H](NC(=O)[C@H](CC(N)=O)NC(=O)[C@H](CCCCN)NC(=O)[C@H](CC(C)C)NC(=O)[C@H](Cc1ccccc1)NC(=O)CNC(=O)[C@H](CC(C)C)NC(=O)[C@@H](N)Cc1ccccc1)C(=O)N[C@@H](Cc1ccccc1)C(N)=O — viability (Huh-7.5.1; cell growth or viability, MTT; 20 µg/mL, 48 h): > 95%
COc1ccc(CNc2nc(N3CCC[C@H]3CO)ncc2C(=O)NN)cc1Cl — revertant count (Salmonella typhimurium; TA97a; 500 µg/plate, 48 h): 91 ± 5
N[C@]1(c2ccccc2Cl)CCC[C@H](O)C1=O — plasma concentration (Wistar rats; intravenous, 20 mg/kg, 10 min): 12000 ± 364 ng/mL
C=C(C)[C@@H]1CCC(CO)=C[C@H]1c1c(O)cc(CCCCC)cc1O — decrease in Cmax (CYP2C19; concentration not given, single dose, with: fluconazole steady state): 41%
CCC(=O)N(C)c1ccc(Cl)c(Cl)c1 — revertants (Salmonella typhimurium; Ames test; TA1537; 0.10 mg/plate, without S9 activation): 2 ± 2.6 revertants/plate
CCCCCc1cc(O)c2c(c1)OC(C)(C)C1CCC(CO)=CC21 (stereo not drawn) — inhibition (UGT2B7 (Homo sapiens, UniProt P16662); enzyme activity, inhibitor; pooled human liver microsomes; up to 100 µM, with: zidovudine): ≤ 50%
Nc1nc2c([C@@H]3O[C@@H]4COP(=O)(O)O[C@H]5[C@@H](O)[C@H](c6scc7c(=O)[nH]c(N)nc67)O[C@@H]5COP(=O)(O)O[C@H]4[C@H]3O)scc2c(=O)[nH]1 — absorption maximum (water): 317 nm
C[C@@H](CO)C(=O)OCCc1ccc(O)cc1 — CC50 (human cells): > 100 µM
C=C(C)[C@@H]1CCC(C(=O)O)=C[C@H]1c1c(O)cc(CCCCC)cc1O — half-life (CYP2C19; human; 750 mg single dose, alone, fluconazole arm baseline): 24.7 h
O=C(O)CCC(NP(=O)(O)OCCC[C@@H](NC(=O)CCC(NC(=O)CCCCCNC(=O)CCCCCNC(=O)c1ccc([18F])cc1)C(=O)O)C(=O)O)C(=O)O (stereo partly drawn) — tracer uptake (CWR22Rv1 tumour model; host not given, tumour; intravenous, 1 h, tumour-bearing): 2.92 %ID/g
CNc1nc(SC)nc2ccccc12 — kinetic solubility (CLND; phosphate-buffered saline; 1 (unit not given), pH 7.4): ≥ 443 µM
CN(C)C(CNC(=O)Nc1cc(C(F)(F)F)ccc1N1CCOCC1)c1ccncc1 (stereo not drawn) — serum creatinine (mouse, serum; intraperitoneal, 120 mg/kg single dose): 0.2 mg/dL
C[C@@](O)(C(F)F)[C@H](NC(=O)c1ccc(C#CC#CC2CC2)cc1)C(=O)NO — terminal half-life (CD-1 mouse; oral, 40 mg/kg, fasted): 2 ± 0.7 h
O=C(O)CCC(NP(=O)(O)OCCC[C@@H](NC(=O)CCC(NC(=O)CCCCCNC(=O)c1ccc([18F])cc1)C(=O)O)C(=O)O)C(=O)O (stereo partly drawn) — tracer uptake (CWR22Rv1 tumour model; host not given, kidney; intravenous, 2 h, tumour-bearing): 21.5 %ID/g
C[C@]12CC[C@H](O)CC1CCC1C2[C@H](O)C(=O)[C@]2(C)[C@@H](c3ccc(=O)oc3)CC[C@]12O (stereo partly drawn) — sulfation rate (SULT2A1 (Homo sapiens, UniProt Q06520); substrate; recombinant human enzyme; 10 µM, 60 min, pH 7.4): 0.263 nmol/min/mg enzyme

A few entries again:
C[C@@H](CO)C(=O)OCCc1ccc(O)cc1 — CC50 (human cells): > 100 µM
